Measurements of several laboratories.
Each line is one published result; not all experiments were run side by side.
Medium: plasma

SMILES	species	route	dose	notes	Tmax
CC(C)(C)C(=O)Nc1ccc2[nH]c(CN3CCC(N(CCCN4CCOCC4)CC4OC(n5cnc6c(N)ncnc65)C(O)C4O)CC3)nc2c1 (stereo not shown)	male Sprague-Dawley rat	intraperitoneal	20 mg/kg	–	11.4 min
Nc1nc(Cl)nc2c1ncn2Cc1cc(OCC(F)F)cc(OC(F)F)c1	Sprague-Dawley rat	oral	5 mg/kg	–	400 min
CNC(=O)N[C@]1(C)CCC[C@@]2(C)C3CC[C@@]4(C)C[C@]3(CCC21)CC4=O (single isomer, unassigned)	male Sprague-Dawley rat	oral	2 mg/kg	–	19.2 min
C[Si](C)(C)C[C@@H](CN)CC(=O)O	male Sprague-Dawley rat	oral	100 mg/kg	single dose	60 min
CC12CC3CC(C)(C1)CC(NC(=O)Nc1ccc(C(=O)N4CCCC(C(N)=O)C4)cc1)(C3)C2 (stereo not shown)	Sprague-Dawley rat	intravenous	10 mg/kg	–	4.8 min
Cc1cc(/C=C/C#N)cc(C)c1Oc1nc(NC2CCN(Cc3ccc(P(C)(C)=O)cc3)CC2)nc2ccsc12	male Sprague-Dawley rat	oral	10 mg/kg	–	120 min
C[Si]1(C)CNC(=O)c2ccccc21	rat	oral	5 mg/kg	single dose	48 min
CC12CC3CC(C)(C1)CC(NC(=O)Nc1ccc(C(=O)N4CCC[C@H](C(N)=O)C4)cc1F)(C3)C2	Sprague-Dawley rat	intravenous	10 mg/kg	–	4.8 min
CN1CCN(c2ccc(Nc3ncc(Cl)c(Nc4ccccc4P(C)(C)=O)n3)cc2Br)CC1	male Sprague-Dawley rat	oral	25 mg/kg	–	54 min
CCNC(=O)[C@@H]1CCCN1C(=O)[C@H](CCCNC(=N)N)NC(=O)[C@H](CC(C)C)NC(=O)[C@@H](CC(C)C)NC(=O)[C@H](Cc1ccc(O)cc1)NC(=O)[C@H](CO)NC(=O)[C@H](Cc1c[nH]c2ccccc12)NC(=O)[C@H](Cc1c[nH]cn1)NC(=O)[C@@H]1CCC(=O)N1	male Sprague-Dawley rat	subcutaneous	12.5 mg/kg	single dose	30 min
CCc1c(Cl)cccc1N1CCN(C[C@H](F)CCNC(=O)c2cc3ccccc3[nH]2)CC1	male Long-Evans rat	oral	10 mg/kg	–	30 min
Cn1cc(-c2cc(N3CCCS3(=O)=O)ccc2N[C@H]2CC[C@H](C)CC2)c2cc[nH]c2c1=O	Sprague-Dawley rat	oral	3 mg/kg	–	60 min
COc1cc2ncnc(Oc3ccc(Nc4nccc5[nH]cc(-c6ccc(F)cc6)c(=O)c45)cc3F)c2cc1OC	male Sprague-Dawley rat	oral	10 mg/kg	–	120 min
C[Si]1(C[C@H](CN)CC(=O)O)CCCC1	male Sprague-Dawley rat	oral	30 mg/kg	single dose	30 min
Cc1ccc(OCC(=O)N(Cc2cccs2)c2ccn[nH]2)cc1	female Sprague-Dawley rat	oral	30 mg/kg	single dose	18.6 min
N=C(N)NCCC[C@H](NC(=O)[C@@H]1CCCN1C(=O)[C@H](Cc1ccccc1)NC(=O)[C@@H]1CCCN1C(=O)[C@H](Cc1c[nH]cn1)NC(=O)[C@@H](N)Cc1ccccc1)C(=O)O	male Sprague-Dawley rat	oral	50 mg/kg	–	5 min
Cc1cc(N2CCC(C#N)(C3(C)CC3)C2=O)cc(C(=O)NCc2cc(F)cc(-c3cnn(C)c3)c2)n1 (racemic)	male Sprague-Dawley rat	oral	3 mg/kg	–	90 min
N#Cc1cnc2cc(OCC3CCNCC3)c(F)cc2c1Nc1cc(F)c(OCc2cccc(Cl)n2)cc1Cl	male Sprague-Dawley rat	oral	300 mg/kg	–	180 min
COc1c2c(cc3oc(CO)cc(=O)c13)O[C@H](C(C)(C)O)C2	male Sprague-Dawley rat	oral	2 mg/kg	–	60 min

For quick reference, copied from above:
SMILES	species	route	dose	notes	Tmax
Cc1ccc(OCC(=O)N(Cc2cccs2)c2ccn[nH]2)cc1	female Sprague-Dawley rat	oral	30 mg/kg	single dose	18.6 min
CCc1c(Cl)cccc1N1CCN(C[C@H](F)CCNC(=O)c2cc3ccccc3[nH]2)CC1	male Long-Evans rat	oral	10 mg/kg	–	30 min
